Measurements collected from several papers.
Lines come from different studies, so protocols differ. “And” joins repeats or separate records; there may be more than shown. ± marks the error that the study gave.

SMILES | cell line | observed | method | time | IC50
CC(=O)N[C@H](C(=O)N[C@@H](CCCNC(=N)N)C(=O)N[C@@H](CCCCN)C(=O)N[C@@H](CCCNC(=N)N)C(=O)N[C@]1(C)CCCCCCC=CCCC[C@@](C)(C(=O)N[C@@H](CCCNC(=N)N)C(=O)N[C@@H](CCC(=O)O)C(=O)N[C@@H](CC(C)C)C(=O)N[C@H](C(=O)N[C@@H](CCC(=O)O)C(N)=O)C(C)C)NC(=O)[C@H](CCC(N)=O)NC(=O)[C@H](CC(C)C)NC(=O)[C@H](CC(C)C)NC(=O)[C@H](CCCNC(=N)N)NC(=O)[C@H](CCCNC(=N)N)NC(=O)[C@H](CC(C)C)NC1=O)C(C)C | H1975 (EGFR L858R/T790M) | cell viability | ATP luminescence | 18 h | 2310 ± 510 nM
Cc1cc(Nc2nc(C[C@@]3(C(=O)O)CCN(Cc4cccc(Cl)c4F)[C@H](C)C3)cc(C)c2F)[nH]n1 | SW48 | cell growth or viability | ATP luminescence | 5 days | 73.1 nM
CC(=O)N[C@H](C(=O)N[C@@H](CCCNC(=N)N)C(=O)N[C@@H](CCCCN)C(=O)N[C@@H](CCCNC(=N)N)C(=O)N[C@H](C(=O)N[C@@]1(C)CCCC=CCCC[C@@](C)(C(=O)N[C@@H](CCC(N)=O)C(=O)N[C@@H](CCC(=O)O)C(=O)N[C@@H](CCCNC(=N)N)C(=O)N[C@@H](CCC(=O)O)C(=O)N[C@@H](CC(C)C)C(=O)N[C@H](C(=O)N[C@@H](CCC(=O)O)C(N)=O)C(C)C)NC(=O)[C@H](CC(C)C)NC(=O)[C@H](CCCNC(=N)N)NC(=O)[C@H](CCCNC(=N)N)NC1=O)[C@@H](C)O)C(C)C | SK-N-MC (no EGFR or ErbB2-4) | cell viability | ATP luminescence | 18 h | > 10000 nM
CC(=O)N[C@H](C(=O)N[C@@H](CCCNC(=N)N)C(=O)N[C@@H](CCCCN)C(=O)N[C@@H](CCCNC(=N)N)C(=O)N[C@]1(C)CCCCCCC=CCCC[C@@](C)(C(=O)N[C@@H](CCCNC(=N)N)C(=O)N[C@@H](CCC(=O)O)C(=O)N[C@@H](CC(C)C)C(=O)N[C@H](C(=O)N[C@@H](CCC(=O)O)C(N)=O)C(C)C)NC(=O)[C@H](CCC(N)=O)NC(=O)[C@H](CC(C)C)NC(=O)[C@H](CC(C)C)NC(=O)[C@H](CCCNC(=N)N)NC(=O)[C@H](CCCNC(=N)N)NC(=O)[C@H](CC(C)C)NC1=O)C(C)C | H2030, wild-type EGFR | – | – | – | 1670 nM and 2170 nM
Cc1ccc(C(C)C)cc1.Cc1ccc(C(C)C)cc1.Cc1ccc(C(C)C)cc1.Cc1ccc(C(C)C)cc1.O=S(=O)(O)C(F)(F)F.O=S(=O)(O)C(F)(F)F.O=S(=O)(O)C(F)(F)F.O=S(=O)(O)C(F)(F)F.c1ccc2c3c4ccccc4c(c2c1)-c1cn(nn1)-c1cc[n+](cc1)[Ru-]1[O]c2ccc4c5c(ccc(c25)=[O+]1)=[O+][Ru-]([O]4)[n+]1ccc(cc1)-n1cc(nn1)-c1c2ccccc2c(c2ccccc12)-c1cn(nn1)-c1cc[n+](cc1)[Ru-]1[O]c2ccc4c5c(ccc(c25)=[O+]1)=[O+][Ru-]([O]4)[n+]1ccc(cc1)-n1cc-3nn1 | AGS | cell growth or viability | MTT | 24 h | 2400 nM
CC[C@H](C)[C@@H]1NC(=O)[C@@H]2CCCN2C(=O)[C@H](C)NC(=O)[C@H](CC(C)C)NC(=O)[C@@H]2CCCN2C(=O)[C@H](C)NC(=O)[C@@H]2CSSC[C@H](NC(=O)[C@H](C)NC(=O)[C@H](C)NC(=O)[C@H](Cc3ccc(O)cc3)NC(=O)[C@@H]3CCCN3C(=O)CNC(=O)[C@H](Cc3c[nH]c4ccccc34)NC1=O)C(=O)N[C@@H](CC(C)C)C(=O)N[C@@H](CO)C(=O)N[C@@H](C)C(=O)N[C@H]1CSSC[C@H](NC(=O)[C@H](C(C)C)NC(=O)[C@@H]3CCCN3C(=O)CNC(=O)CNC(=O)CNC(=O)[C@H](C)NC(=O)[C@H](C)NC(=O)[C@H](CC(C)C)NC1=O)C(=O)N[C@@H](CC(C)C)C(=O)N[C@@H](C)C(=O)N[C@@H](C(C)C)C(=O)N2 | CT26 | – | – | – | > 128 µg/mL
Cc1ccc(CC(=O)N2CCN(CC(OCc3ccc4ccccc4c3)c3ccc(Cl)cc3Cl)CC2)cc1 (stereo not drawn) | MDA-MB-468 | cell growth or viability | MTT | 24 h | 25100 nM
C[C@H]1[C@H](OC(=O)CCC(=O)OCCC2CCN(CC(=O)Nc3ccc([N+](=O)[O-])c(C(F)(F)F)c3)CC2)O[C@@H]2O[C@@]3(C)CC[C@H]4[C@H](C)CC[C@@H]1[C@@]24OO3 | MCF-10A | cell growth or viability | CCK-8 | – | 27300 nM
Cc1cc(Oc2nc(N3CC[C@@H](c4ccncc4)C3)ncc2F)[nH]n1 | MT3 | cell proliferation | – | – | 56200 nM
Cc1cc(C)cc(COc2cc3c(cc2OCc2cc(C)cc(C)c2)C2CC(O)(Cc4cn(CCOCCOCCOCCNc5ccc6c(c5)C(=O)N(C5CCC(=O)NC5=O)C6=O)nn4)CC(C)N2CC3)c1 (racemic) | ASPC1 | cell growth or viability | MTT | – | 2410 nM
CC(C)C12OC1C1OC13C1(C)CCC4=C(COC4=O)C1CC1OC13C2OC(=O)CCCOC1OC(CO)C(O)C(O)C1O (stereo not drawn) | sensitive human cancer cell lines | cell viability | XTT | – | 470 nM
CC(=O)Oc1cccc2c1C(=O)C=CC2=O | HFF-1 | cell growth or viability | MTT | 48 h | 7300 nM
Cc1ccc(C(C)C)cc1.F[P-](F)(F)(F)(F)F.[Cl][Os+]1[N]2C=CC=c3ccc4c(c32)[N]1C=CC=4 | B16-F10 | cell growth or viability | MTT | – | > 100000 nM
CC(=O)N[C@H](C(=O)N[C@@H](CCCNC(=N)N)C(=O)N[C@@H](CCCCN)C(=O)N[C@@H](CCCNC(=N)N)C(=O)NC(C)(C)C(=O)N[C@@H](CC(C)C)C(=O)N[C@@H](CCCNC(=N)N)C(=O)N[C@@H](CCCNC(=N)N)C(=O)N[C@@H](CC(C)C)C(=O)N[C@@H](CC(C)C)C(=O)N[C@@H](CCC(N)=O)C(=O)NC(C)(C)C(=O)N[C@@H](CCCNC(=N)N)C(=O)N[C@@H](CCC(=O)O)C(=O)N[C@@H](CC(C)C)C(=O)N[C@H](C(=O)N[C@@H](CCC(=O)O)C(N)=O)C(C)C)C(C)C | H1975 (EGFR L858R/T790M) | cell viability | ATP luminescence | 18 h | > 100000 nM
CCOc1ccccc1-n1c(CN2CCNCC2)nc2ccccc2c1=O | SK-MES-1 | cell growth or viability | – | 72 h | 334 nM

A few entries again:
SMILES | cell line | observed | method | time | IC50
CC(=O)Oc1cccc2c1C(=O)C=CC2=O | HFF-1 | cell growth or viability | MTT | 48 h | 7300 nM
Cc1ccc(C(C)C)cc1.F[P-](F)(F)(F)(F)F.[Cl][Os+]1[N]2C=CC=c3ccc4c(c32)[N]1C=CC=4 | B16-F10 | cell growth or viability | MTT | – | > 100000 nM
